Assay results from different studies.
Each numbered part is a random draw from the data of one study; scales do not carry over between parts. Changes are numbered by the printed parent chain.

Study 1 — technique: RNA Bind-n-Seq; form: RNA; sample: in vitro; tested at: 365 nM; relative to: no-protein control; reading: higher = stronger binding
Target: RNA binding protein fox-1 homolog 2, RRM domain, GST-SBP tag (RBFOX2, Homo sapiens, UniProt O43251-10, residues 100-194)
Notes: natural RNA segment, single round, ends assumed
Constant ends, left off below: GGGAGUUCUACAGUCCGACGAUC … UGGAAUUCUCGGGUGCCAA
Construct (chain): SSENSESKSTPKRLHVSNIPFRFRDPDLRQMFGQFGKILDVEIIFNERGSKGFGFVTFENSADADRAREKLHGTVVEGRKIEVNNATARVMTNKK
Strand | RBNS enrichment (R)
AGUGACUGAUCUUUGGGAAUGUCUUGUCUUUGCAUGGGGCUCAUAGAGAUGUGUGCAGACUUGCUUAUUGUGGUUAGUGUGUAUCAGGAACACACACACAGGUGUUCUGA | 2.28
AAAAGACAACUUCCUUUUUCUUCAGCUCCCACACCCCAUUUUUCUUAGCAGACUGCAGUCAAUCCACAUUCAAUAAAAAGUAUAUAAUGCCCAUUUUUAUAUGCACGUUU | 0.956
GGGAAUUUGCUCCUGUUCUGUCACUUGUCAUGGUCUUUCUUGGUAUUAAAGGCCACCAUUUGCACAAUGUUCCUGUUUUGGGUAACUUGGAUUAUUGUCAGAAUUGUUCU | 0.986
CAGACGCAUUGCCCGGUACUAGGAAGGAGUGAGGUGUGUUCCCACCGUACACUUCCCACACGAGCUGCGGCUGCCAGCCUCGGGCCAUCAGCCUAGGAGAGCAGAUGCAG | 0.341
GAAGCCCCCAGAAAUAAUGAGUGGGGAAGGUACUAGGGCACUGGCCUUGGCCUCAAAAGUGCAGGCACACUUGAAACUGGAAAGGAAGGUGCUCUGGGCACAUGUGGAUU | 0.663
CUUCCGUGUUCCUGUCAGUCCUUCCUUCAAGAAGCCGGGGAACUCAGGCAGACUCAUCUCCGCAGAGCAUACCAGCCGUGGGGGACCGUUCGACUUGAUGAUGUGUGCAC | 0.349
AGCAGAACCUGCACACAGGACAGCGGGAAAAAUCGAUGAGCGCCACCUCUUUAAAAACUCACUUACGUUUGUCCUUUUUCACUUUGAAAAGUUGGAAGGAUCUGCUGAGG | 0.43
AAACUCAAGUGGAGCUGAACUUUCACAAAGGGAAAGAUAAACCACAGAAGCCUGGCCCCAGAGACCUAAGACCUGUAUUGUGCAUUGUUUCCUAACUGCAUGUGAUAGAC | 4.48

Study 2 — technique: protein-binding microarray; form: double-stranded DNA, one strand shown; sample: in vitro; tested at: 2200 nM top; notes: 60-bp whole probe; with: salmon DNA 0.4 mg/ml; relative to: random background probes; reading: higher = stronger binding; constant ends, left off below: GCCTAGCAC … GTCTTGATTCGCTTGACGCTGCTG
Target: Interferon regulatory factor 7, full length, phosphomimetic (IRF7, Homo sapiens, UniProt Q92985, residues 1-503, S471D/S472D/S475D/S476D/S477D/S483D/S484D/S487D)
Sequence of UniProt Q92985 (whole entry, unmodified, looked up): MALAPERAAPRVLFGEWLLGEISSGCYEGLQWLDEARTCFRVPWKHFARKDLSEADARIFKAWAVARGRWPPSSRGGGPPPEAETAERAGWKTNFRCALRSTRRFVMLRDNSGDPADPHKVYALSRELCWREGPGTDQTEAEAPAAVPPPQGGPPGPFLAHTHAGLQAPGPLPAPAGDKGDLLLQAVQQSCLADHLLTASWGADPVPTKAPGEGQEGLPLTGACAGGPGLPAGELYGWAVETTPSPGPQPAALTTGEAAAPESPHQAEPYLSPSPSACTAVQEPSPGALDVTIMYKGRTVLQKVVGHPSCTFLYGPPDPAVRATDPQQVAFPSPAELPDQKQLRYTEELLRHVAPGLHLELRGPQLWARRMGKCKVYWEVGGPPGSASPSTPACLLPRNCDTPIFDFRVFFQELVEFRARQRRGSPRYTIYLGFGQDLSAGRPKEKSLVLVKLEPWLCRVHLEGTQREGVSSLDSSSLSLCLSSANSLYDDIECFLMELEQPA
Strand | fitted relative affinity
TCACTTTTATGCTCTTTCACTGTGCTA | 2.23 z-score
AGTATGAGTTGCCCTTTCCCGTGCTAG | 0.864 z-score
GACGGACTGCTTAACCTGACGTGCTAG | 0.0762 z-score
AGGCAGGCATAAAGGAAAAAGTGCTAG | -1.99 z-score
GACGTTATCCTTCTCCTGACGTGCTAG | 1.76 z-score
TTAGGACTGCTCCTCCTTTAGTGCTAG | 0.621 z-score
TTGTGTCTGGGCATTTTTTTTGTGCTA | -0.732 z-score
TTAGGTATAGACACTGGGTTAGTGCTA | -0.388 z-score
ACTCGTGACCCTCTCAAAGGGTGCTAG | 0.117 z-score
GACGATATCAGTATCCAGACGTGCTAG | 0.445 z-score
GACGGACTGGGCATCGGGACGTGCTAG | -1.13 z-score
TCAGATATGCGGTAAGGGACTGTGCTA | -0.58 z-score
TCATCTCTGGGCTGTGGGACTGTGCTA | 0.161 z-score
GACGGGCTCGGTTTCGGGACGTGCTAG | 2.54 z-score
TTAGGACTGAACACTGGGTTAGTGCTA | -0.734 z-score
TTTATTTTCTGAATGCCCTCGTGCTAG | 4.18 z-score
GACCGTATCGGGTATCGGGACGTGCTA | 0.127 z-score
GACCGACTGGACTATCGGGACGTGCTA | -0.149 z-score
GACGAACTGTGTCTCGAGACGTGCTAG | 0.394 z-score

Study 3 — technique: competition protein-binding microarray; form: double-stranded DNA, one strand shown; sample: in vitro; tested at: 2 µM; with: Cbf1 competitor, 0.05 µM; reading: higher = stronger binding; constant ends, left off below: … GTCTTGATTCGCTTGACGCTGCTG
Target: Phosphate system positive regulatory protein PHO4, full length, GST-tagged (PHO4, Saccharomyces cerevisiae, UniProt P07270, residues 1-312)
Notes: whole 60-bp probe, lowest competitor level
Target sequence (chain): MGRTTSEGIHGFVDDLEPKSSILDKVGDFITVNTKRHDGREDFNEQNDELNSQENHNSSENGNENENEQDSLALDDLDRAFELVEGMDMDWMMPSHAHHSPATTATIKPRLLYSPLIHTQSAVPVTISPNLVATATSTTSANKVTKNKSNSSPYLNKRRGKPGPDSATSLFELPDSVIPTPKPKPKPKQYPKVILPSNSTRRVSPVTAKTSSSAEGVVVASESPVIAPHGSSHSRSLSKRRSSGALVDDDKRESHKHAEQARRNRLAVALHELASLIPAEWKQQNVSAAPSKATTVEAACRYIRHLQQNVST
Strand | fluorescence intensity [a.u.]
CGGGGTTAAGTTTTTCACGTGTGCTGCTTGCAGCAG | 11800
CATACCCAACCTTTTCACGTGCACTAAGATATTTGT | 15800
AGACGGGGATCATCTTGCATGACAGTGCTAACATTT | 4420
CTAACGAAGGTTTGACTGGTGGGTGACAAGCCAAGT | 3540
CGGGGTTAAGTTTGTCACTAGACTTGCTTGCAGCAG | 3290

Study 4 — technique: DHFR PCA, deep sequencing; sample: yeast; with: (+)-ABA 2500 µM; relative to: wild-type fitted maximum; reading: higher = stronger binding
Target: ABI1, truncated, D143A, DHFR fusion (Arabidopsis thaliana)
Notes: methotrexate growth selection, single substitutions
Parent: PYL1, truncated, DHFR fusion (Arabidopsis thaliana); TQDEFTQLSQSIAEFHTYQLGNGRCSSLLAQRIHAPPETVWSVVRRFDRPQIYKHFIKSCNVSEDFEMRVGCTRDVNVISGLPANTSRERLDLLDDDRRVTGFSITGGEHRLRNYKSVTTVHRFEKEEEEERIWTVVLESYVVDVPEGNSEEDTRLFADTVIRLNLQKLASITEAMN; partner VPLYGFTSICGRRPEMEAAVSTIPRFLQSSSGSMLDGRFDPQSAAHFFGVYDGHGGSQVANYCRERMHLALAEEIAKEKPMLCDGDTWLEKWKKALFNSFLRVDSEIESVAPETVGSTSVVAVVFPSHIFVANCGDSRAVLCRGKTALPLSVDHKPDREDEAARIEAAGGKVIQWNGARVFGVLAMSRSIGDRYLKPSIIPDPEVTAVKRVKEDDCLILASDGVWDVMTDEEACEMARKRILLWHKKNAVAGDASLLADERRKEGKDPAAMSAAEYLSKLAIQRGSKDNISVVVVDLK
Substitution | relative binding score
I57G | 25.9%
E139W | 93.9%
T173G | 90.4%
A175R | 97.1%
V44C | 84.5%
D65G | 97.2%
D48M | 60.5%
I57C | 88.6%
A13P | 82.5%
K58M | 94%
D159V | 38.4%
R88P | 35.2%
Q31A | 73.3%
F124S | 102%
G81A | 85.4%

Some of these lines once more (study 4):
Substitution | relative binding score
D65G | 97.2%
V44C | 84.5%
I57C | 88.6%
G81A | 85.4%
